{"data": "Published values gathered from unrelated publications", "rep main protease": "Replicase polyprotein 1ab, main protease (rep, Severe acute respiratory syndrome coronavirus 2, UniProt P0DTD1)", "rep nsp14 N7-methyltransferase": "Replicase polyprotein 1ab, nsp14 N7-methyltransferase (rep, Severe acute respiratory syndrome coronavirus 2, UniProt P0DTD1)", "note": "Protocols differ between the studies behind these lines. ± marks the error that the study gave."}
{"SMILES": "CC(=O)NO", "target or system": "rep main protease", "test": "reporter gene (Gaussia luciferase), inhibitor", "setting": "20 µM", "endpoint": "inhibition", "result": "0.384%"}
{"SMILES": "O=C(O)c1nnn(-c2nccs2)c1-c1ccc2c(c1)OCO2", "target or system": "rep nsp14 N7-methyltransferase", "test": "N7-methyltransferase activity, inhibitor, Py-FLINT", "endpoint": "Hill slope", "result": "0.77 ± 0.1"}
{"SMILES": "CCC(C(=O)Nc1cc(NC2CCOCC2)ccc1C)n1cc(Cl)cc2nc(SCc3ccc(F)cc3)nc1-2 (centres unmarked)", "target or system": "Replicase polyprotein 1ab, papain-like protease (rep, Severe acute respiratory syndrome coronavirus 2, UniProt P0DTD1)", "test": "binding", "endpoint": "koff", "result": "0.15 s⁻¹"}
{"SMILES": "O=C(c1cccc(CF)c1)N1CCCCC[C@@H](Nc2nc(-c3cccnc3)nc3c2CCC3)C1", "target or system": "rep main protease", "test": "enzyme activity, inhibitor", "setting": "5 µM, run 1", "endpoint": "inhibition", "result": "8.8%"}
{"SMILES": "O=C(Nc1cc(C(F)(F)F)ccc1N1CCCCC1)c1ccncc1", "target or system": "rep main protease", "test": "reporter gene (mKate2), inhibitor", "setting": "20 µM", "endpoint": "inhibition", "result": "1.76%"}
{"SMILES": "Cc1ccc(C)c(C(=O)N2CC[C@@H]([C@@H]3CCCN(C(=O)c4cccc5oc(=O)[nH]c45)C3)C2)c1", "target or system": "rep main protease", "test": "enzyme activity, inhibitor", "setting": "5 µM, run 1", "endpoint": "inhibition", "result": "13.4%"}
{"SMILES": "CC(C)C[C@H](NC(=O)CNC(=O)c1cc(Cl)ccc1Cl)B(O)O", "target or system": "rep main protease", "test": "reporter gene (mKate2), inhibitor", "setting": "20 µM", "endpoint": "inhibition", "result": "-1.26%"}
{"SMILES": "O=C(c1cnn2c1CCC2)N1CCCCC[C@@H](Nc2nc(-c3cccnc3)nc3c2CCC3)C1", "target or system": "rep main protease", "test": "enzyme activity, inhibitor", "setting": "5 µM, run 1", "endpoint": "inhibition", "result": "7.6%"}
{"SMILES": "CC1CC(c2ccc(C(=O)O)cc2)=NN1c1cccc(Cl)c1.N (centres unmarked)", "target or system": "Replicase polyprotein 1ab, nsp14 methyltransferase (rep, Severe acute respiratory syndrome coronavirus 2, UniProt P0DTD1)", "endpoint": "lipophilic ligand efficiency", "result": 1.3}
{"SMILES": "Cn1cnc(Cn2c(=O)[nH]/c(=N\\c3cc4cn(C)nc4cc3Cl)n(Cc3cc(F)c(F)cc3F)c2=O)n1", "system": "human, moderate renal impairment", "setting": "oral, 375 mg", "endpoint": "any TEAE, severe severity", "result": "0%"}
{"SMILES": "CNC(=O)[C@@H](NC(=O)[C@H](CC(C)C)[C@H](O)C(=O)NO)C(C)(C)C", "target or system": "C2C12", "setting": "1 µM, added: MP venom", "how to read": "relative to: venom alone", "endpoint": "viability difference", "result": "14.9%"}
{"SMILES": "CC(C)C[C@H](NC(=O)OCc1ccccc1)C(=O)N[C@@H](CC(C)C)C(=O)N[C@@H](CC1CCNC1=O)C(=O)C(=O)NC1CC1 (some centres unmarked)", "target or system": "rep main protease", "test": "thermal stability, DSF", "endpoint": "ΔTm", "result": "18.1 °C"}
{"SMILES": "CCOc1nc2cccc(C(=O)OC(C)OC(=O)OC3CCCCC3)c2n1Cc1ccc(-c2ccccc2-c2nn[nH]n2)cc1 (centres unmarked)", "target or system": "rep nsp14 N7-methyltransferase", "test": "N7-methyltransferase activity, inhibitor, Py-FLINT", "endpoint": "Hill slope", "result": "2.15 ± 0.22"}
{"SMILES": "CC[C@H](C)[C@H](NC(=O)[C@H](CC(C)C)NC(=O)[C@H](Cc1c[nH]c2ccccc12)NC(=O)[C@H](CCC(N)=O)NC(=O)[C@@H](NC(=O)[C@H](Cc1ccccc1)NC(=O)[C@H](C)NC(=O)[C@H](CCCCNC(=O)COCCOCCNC(=O)COCCOCCNC(=O)CC[C@H](NC(=O)CCCCCCCCCCCCCCCCCCC(=O)O)C(=O)O)NC(=O)[C@H](CCC(N)=O)NC(=O)[C@H](C)NC(=O)[C@@H](NC(=O)[C@H](CCCCN)NC(=O)[C@H](CC(=O)O)NC(=O)[C@H](CC(C)C)NC(=O)C(C)(C)NC(=O)[C@@H](NC(=O)[C@H](CO)NC(=O)[C@H](Cc1ccc(O)cc1)NC(=O)[C@H](CC(=O)O)NC(=O)[C@H](CO)NC(=O)[C@@H](NC(=O)[C@H](Cc1ccccc1)NC(=O)[C@@H](NC(=O)CNC(=O)[C@H](CCC(=O)O)NC(=O)C(C)(C)NC(=O)[C@@H](N)Cc1ccc(O)cc1)[C@@H](C)O)[C@@H](C)O)[C@@H](C)CC)[C@@H](C)CC)C(C)C)C(=O)N[C@@H](C)C(=O)NCC(=O)NCC(=O)N1CCC[C@H]1C(=O)N[C@@H](CO)C(=O)N[C@@H](CO)C(=O)NCC(=O)N[C@@H](C)C(=O)N1CCC[C@H]1C(=O)N1CCC[C@H]1C(=O)N1CCC[C@H]1C(=O)N[C@@H](CO)C(N)=O", "system": "healthy subjects, single ascending dose", "setting": "1.0 mg, baseline", "endpoint": "serum lipase", "result": "21 ± 11 U/L"}
{"SMILES": "C#CC1(C(=O)NC[C@H](NC(=O)c2cncc3[nH]ccc23)c2ccc3ccccc3c2)CC1", "target or system": "rep main protease", "test": "enzyme activity, inhibitor", "setting": "5 µM, mean of runs", "endpoint": "inhibition", "result": "14.8%"}
{"SMILES": "Nc1ncnc2c([C@@H]3N[C@H](CO)[C@@H](O)[C@H]3O)c[nH]c12", "target or system": "Marburg marburgvirus", "test": "virus production", "system": "HeLa, Musoke", "setting": "6.3 µM", "endpoint": "inhibition", "result": "93%"}
{"SMILES": "C=C[C@@H]1C[C@]1(NC(=O)[C@@H]1C[C@@H](Oc2ncc(OC)c3ccc(Cl)cc23)CN1C(=O)[C@@H](NC(=O)OC(C)(C)C)C(C)(C)C)C(=O)NS(=O)(=O)C1CC1", "target or system": "rep main protease", "test": "reporter gene (mKate2), inhibitor", "setting": "20 µM", "endpoint": "inhibition", "result": "-0.0949%"}
{"SMILES": "CC(C)N(CCC(=O)c1ccc2ccccc2c1)Cc1ccccc1", "target or system": "rep nsp14 N7-methyltransferase", "test": "N7-methyltransferase activity, inhibitor, Py-FLINT", "endpoint": "Hill slope", "result": "1.5 ± 0.35"}
{"SMILES": "CC(C)C[C@H](CC(=O)NO)C(=O)N[C@@H](Cc1ccc2ccccc2c1)C(=O)N[C@@H](C)C(=O)NCCN", "target or system": "rep main protease", "test": "viral replication, Gluc reporter", "system": "SARS-CoV-2", "setting": "20 µM", "endpoint": "inhibition", "result": "1.65%"}
{"SMILES": "COC(=O)c1c(C)[nH]c(C(=O)COn2nnc3ccc(S(=O)(=O)N(C)C)cc32)c1C", "target or system": "rep main protease", "test": "enzyme activity, inhibitor", "system": "SARS-CoV-2", "endpoint": "Hill slope", "result": 1.97}
